Experimental data gathered from unrelated publications.
A part holds a random share of what one study measured.

Block 1
Target: Myc proto-oncogene protein, bHLH-zipper, MAX partner unstated (MYC, Homo sapiens, UniProt P01106, residues 368-449)
UniProt P01106, sequence (368-449, looked up): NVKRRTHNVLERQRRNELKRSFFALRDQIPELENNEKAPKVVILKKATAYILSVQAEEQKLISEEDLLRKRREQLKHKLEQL
Technique: protein-binding microarray
Molecule type: double-stranded DNA, one strand shown
Matrix: in vitro
Tested at: not given
Notes: k-mer, scored over probes, only values ≥0.25
Reading: higher = stronger binding
Quantity: E-score
CGTGCTCC: 0.39
ATGACACG: 0.373
GGCGGGCA: 0.264
GCTCCCCA: 0.259
AACGTGGA: 0.408

Block 2
Target: Ras GTPase-activating protein-binding protein 1, full length (G3BP1, Homo sapiens, UniProt Q13283)
UniProt Q13283, sequence (whole entry, looked up): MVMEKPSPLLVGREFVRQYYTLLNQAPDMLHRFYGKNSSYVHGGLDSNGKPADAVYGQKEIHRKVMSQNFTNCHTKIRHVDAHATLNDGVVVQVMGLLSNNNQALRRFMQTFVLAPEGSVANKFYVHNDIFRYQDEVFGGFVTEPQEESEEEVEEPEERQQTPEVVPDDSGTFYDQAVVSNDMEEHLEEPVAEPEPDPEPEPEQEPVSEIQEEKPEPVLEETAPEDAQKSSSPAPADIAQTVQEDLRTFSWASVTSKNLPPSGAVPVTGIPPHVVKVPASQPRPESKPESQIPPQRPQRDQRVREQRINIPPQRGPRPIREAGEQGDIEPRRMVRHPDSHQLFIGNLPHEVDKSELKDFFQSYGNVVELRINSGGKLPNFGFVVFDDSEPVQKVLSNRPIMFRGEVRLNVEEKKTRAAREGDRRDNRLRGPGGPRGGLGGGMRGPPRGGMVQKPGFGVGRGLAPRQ
Technique: RNA Bind-n-Seq
Molecule type: RNA
Matrix: in vitro
Tested at: 200 nM
Notes: whole 134-nt RNA, ends assumed
Together with: 150 mM KCl
Reference: input library
Reading: higher = stronger binding
Quantity: log2 enrichment
All sequences stand within: GGGAGUUCUACAGUCCGACGAUC … UGGAAUUCUCGGGUGUCAAGG
GUGAAUCAAAAACUCUGGUUUUAAGCAACCUCUCCUACAGUGCAACAGAAGAAACUCUUCAGGAAGUAUUUGAGAAAGCAACUUUUAUCA: 0.975
GCAGGAAGUAAAAACAAAUGGAAAUCCUUCGGAUAGUGGCAGGGGUGGGGGUUGCUAAGGAAAGGGUGGGAUGGGAGUGGGUAAAGAGUU: 1.15
UCCUGUGCUACACAUCGUAUGUACCGAAUCGGGUUUUUUUGGGUUUUUGGGAAAAAGGGAAAGUAUUAUGUUACGCCGUUCGGAUCUGCA: -0.456
CAAGUCCUGUGCUACACAUCGUAUGUACCGAAUCGGGCCCGGCCCGGGCCCGGGGAAAGUAUUAUGUUACGCCGUUCGGAUCUGCACUUC: -1.27
CCUCAAGUCCUGUGCUACACAUCGUAUGUACCGAAUCGGGUGGGGUGGGGUGGAAAGUAUUAUGUUACGCCGUUCGGAUCUGCACUUCCA: 1.07
GCAGGAGGUAAAAACAAAUGGAAAUGCUUCGGAUAGUGGCAGGGGUGGGGGUUGCUAAGGAAAGGGUGGGAUGGGAGUGGGUAAAGAGUU: 0.944
CCUGUGCUACACAUCGUAUGUACCGAAUCGGGAAAAAAGGGGAAAAAAGGGGAAAAAAGGAAAGUAUUAUGUUACGCCGUUCGGAUCUGC: -0.599

Block 3
Target: RNA binding protein fox-1 homolog 2, RRM domain, GST-SBP tag (RBFOX2, Homo sapiens, UniProt O43251-10, residues 100-194)
Technique: RNA Bind-n-Seq
Molecule type: RNA
Matrix: in vitro
Tested at: 365 nM
Notes: natural RNA segment, single round, ends assumed
Reference: no-protein control
Reading: higher = stronger binding
Quantity: RBNS enrichment (R)
All sequences stand within: GGGAGUUCUACAGUCCGACGAUC … UGGAAUUCUCGGGUGCCAA
Residues (chain): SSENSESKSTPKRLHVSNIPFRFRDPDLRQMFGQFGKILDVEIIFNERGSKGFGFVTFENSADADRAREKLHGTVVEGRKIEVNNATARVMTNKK
CCUAAGGCUUUGUGGGUAAGAUUACUUGCCACCUGCUUACUCUUAUGAAAUAGUCCAGUGCUCAUAUUAUCACUUGUCUCGUCUCCAGCAAAUACGAGGGGGCUUCUGAA: 0.438
ACCAACCUGUUUUCUUCCUCACUUGAAAUUGUACUUUCUGAAAUUUCAAGCAAAUUAAAAACAAUAAGGUAGGAGGUAUUUCCCACGUCACCCCAAGGUGACCAGCCAUG: 0.301
GUGCCUCCACCACCCCCAGCAGAAAAAAUAAGAUACUGAAAUAAGUUGAGUCAUUUCGCAAACAUUUACUGAGCACCUCCUGUGUGCCAGGCUCCUAGAAAGACAGGGAG: 0.548
GCUUUCUGUGCAUGAACUAGAAAAGGAGACAUUAUAUUAAAUUAGCCACCUUUUGGCCCCUAAGCUCGCUUGUAAUGUGUCUUUCUUGGUGUCUUGCUGCCUUUCACUUU: 5.72
ACAUGGGGAGCCCGGAGGACAGGCUGCUGUCCAGGGCAGAGGCCAUGAAGAAGUGCUUCCGUGGCCGACAGUCUGGAAAUGAAUCCAUCAUACAUUAGUGCCAUAGAGUU: 0.384
CUCUCAGCUUCCAUAUGGAAGUGAGGAAGGGACCUGUGCCUAUUAGCCCUCUUGAUUCUCACCUGAUAGGGCAACAUCAAAGCUUGGUGUGGGUGUGGGUGCCAGCUCCA: 0.224
GACUGAAUAGUUGGGUUUUAAAAGUGCAUGCUAUAAACAGACGAGCAUCCUAGAGCUCACUGAGCACUGCUGAGCUUUGACACGCCAGCCACACACAGCUUGCUGCUGUC: 2.4
UAUUGAAGAGUCCGCACACAUACUCACCCCUCUGGUGGGCCACAUGAGGACCUGCAUCUUGCAGAUGAUGUAGCAAGCCUUAGGAUGGUUCAUGAUCAGUAGGAAGCAAA: 0.665

Other studies, line by line
PhoQ, residues 284 288 289 292 302 303 SLKLQV — fold induction (PhoP, residues 12 14 15 18 19 AQALL (Escherichia coli, UniProt P23836); Sort-seq, measured: YFP reporter; E. coli; PhoQ-PhoP variant library, together with: 10 µM Mg2+; reference: high Mg2+ state, higher = stronger signaling): 11.2

A few entries again (block 3):
CCUAAGGCUUUGUGGGUAAGAUUACUUGCCACCUGCUUACUCUUAUGAAAUAGUCCAGUGCUCAUAUUAUCACUUGUCUCGUCUCCAGCAAAUACGAGGGGGCUUCUGAA: 0.438
